# Measured values pooled from the literature.
# Each line is one published result; not all experiments were run side by side. Values joined by “and” are separate records of one study, mostly repeats; a detail may differ. ± marks the error that the study gave.
Compound,test,test system,conditions,how to read,quantity,value
O=C(c1nc2n(n1)[C@H](c1ccccc1)C[C@@H]2F)C1CC1,,human,"5 mg single dose, mean",,fraction excreted in urine 0-72 h,0.18%
O=C(N[C@@H](CSCc1ccc([N+](=O)[O-])cc1)C(=O)NO)c1ccccc1,,"ICR mice, male","oral, 200 mg/kg, 28 days, subacute toxicity",,blood glucose level,increased
O=C(Nc1nc2cccc(-c3ccc(CN4CCS(=O)(=O)CC4)cc3)n2n1)C1CC1,refers to: joint swelling,human rheumatoid arthritis patients,"oral, 150 mg once daily, 4 weeks, regardless of relatedness",,treatment-emergent adverse events,0%
O=C(O)CCC(=O)O.[2H]C([2H])([2H])Oc1cc(C)c2[nH]ccc2c1CN1CC[C@@H](C2CC2)C[C@H]1c1ccc(C(=O)O)cc1,multiple ascending dose,healthy Chinese subjects,125 mg twice daily,,subjects with any TEAE,75%
O=C(O)CCCOc1ccc([18F])cc1-c1cc(-c2ccccc2C(F)(F)F)n(-c2ccccc2)n1,gamma counting,"male ddY mice, brain","intravenous, 2.1 MBq, 15 min",,radioactivity uptake,0.21 ± 0.02 SUV
Cl.[2H]C([2H])([2H])CC(=O)c1cnc(NC(=O)C2CC2)cc1Nc1cccc(-c2ncn(C([2H])([2H])[2H])n2)c1OC,geometric mean,human,"oral, 25 mg single dose, fasted, liquid",,elimination rate constant,2.42e-05 s⁻¹
O=C(O)CC[C@H](NC(=O)N[C@@H](CCCCNC(=O)[C@H](Cc1ccc2ccccc2c1)NC(=O)[C@H]1CC[C@H](CNC(=O)CN2CCN(CC(=O)O)CCN(CC(=O)O)CCN(CC(=O)O)CC2)CC1)C(=O)O)C(=O)O,,"male BALB/c nude mice, LS174T-PSMA xenografts, kidney","intravenous, 0.3 nmol, 2 h, radiolabelled (111In or 99mTc)",reference: tumour over kidney,tumour-to-tissue ratio,3 ± 1.5
C[C@@H](Oc1ccc(S(C)(=O)=O)cc1C(=O)N1C[C@@H]2C[C@]2(c2cc(C(F)(F)F)on2)C1)C(F)(F)F,,"young healthy humans, urine","oral, 75 mg once daily, 0 to 24 h, multiple dosing",,fraction excreted in urine at steady state,3.9%
COc1ccnc(C(=O)NCC(=O)O)c1O,soil adsorption,clay soil,"pH 7.6, organic carbon 1.7 %",,Freundlich coefficient KF,6.19 mL/g
N#Cc1ccccc1CSCCNC(=O)C1(C(=O)O)CC=CCC1 (stereo not drawn),"colloidal aggregate formation, dynamic light scattering",50 mM potassium phosphate buffer,"200 µM, pH 7.0, 1% DMSO",higher = more aggregation,DLS scattered light intensity,546000 counts/s
COc1ccc2c(c1)CN(C(=O)CCN1CCC(Cc3ccccc3)CC1)CC[S@@+]2[O-],,human plasma,1000 ng/mL,,fu,0.133
CNC(=O)c1ccc(-c2cnc3ncc(Cc4ccc5ncccc5c4)n3n2)cc1F,refers to: Insomnia,cancer patients,"oral, dose not given, dose escalation, grade 3-4",,patients with adverse event,0%
C[C@@H](Nc1cc(F)cc(F)c1)c1cc(C(=O)N(C)C)cc2c(=O)cc(N3CCOCC3)oc12,,"human, plasma","oral, 180 mg single dose, day 1, range, 5:2 twice daily schedule",,AUC(0-12),4940 to 8540 ng·h/mL
Cn1ncc(C(=O)O)c1S(=O)(=O)NC1CCOc2ccccc21 (stereo not drawn),"colloidal aggregate formation, dynamic light scattering",50 mM potassium phosphate buffer,"200 µM, pH 7.0, 1% DMSO",higher = more aggregation,DLS scattered light intensity,561000 counts/s
NCCONC(=O)[C@@H]1CC[C@@H]2CN1C(=O)N2OS(=O)(=O)O,refers to: infusion-related reaction,healthy Chinese men,"intravenous, 1 g, treatment-related",,adverse event incidence,0%
O=C(O)CSc1nnc(Br)n1-c1ccc(C2CC2)c2ccccc12,,"KM mouse, chronic hyperuricaemia model","dose not given, day 22",,body weight,35.5 g and 31.4 g and 32.5 g and 39.3 g and 36.9 g and 36 g
CC#CC(=O)N1CC[C@@H](n2c(=O)n(-c3ccc(Oc4ccccc4)cc3)c3c(N)ncnc32)C1,,"human, fasting, plasma","oral, 480 mg once daily, cycle 1 day 1",,"Tmax, median",2.93 h
O=C(OC(C(F)(F)F)C(F)(F)F)N1CCN(Cc2cccc(Oc3ccccc3)c2)CC1,PET blocking study,"rhesus monkey, brain STR","0.03 mg/kg, compound pretreatment, together with: [18F]T-401 tracer",,k2,0.031 min⁻¹
CO[C@@H]1[C@H](O)[C@@H](CO)O[C@H]1n1c([N+](=O)[O-])nc2c(=O)[nH]c(N)nc21,"depurination, RP-HPLC",citrate-phosphate buffer 0.5 mM,"65 min, pH 5, 37 °C",,nucleoside remaining fraction,0.949
Cn1ncc(S(=O)(=O)NC2CCOc3c(Cl)cccc32)c1C(=O)O (stereo not drawn),"colloidal aggregate formation, dynamic light scattering",50 mM potassium phosphate buffer,"200 µM, pH 7.0, 1% DMSO",higher = more aggregation,DLS scattered light intensity,282000 counts/s
O=C(N/N=C/c1ccccc1O)c1ccncc1,,ADS buffer,"4 µM, 12 h, 5 °C, post-preparative, autosampler",,stability,99.6%
Cc1ccc([C@@H]2O[C@H](CO)[C@@H](O)[C@H](O)[C@H]2O)cc1Cc1ccc(-c2ccc(F)cc2)s1,,Japanese type 2 diabetes patients,"100 mg, day 17, 24 h urine collection",reference: baseline,urinary magnesium excretion change,26.6 mg
CCCOc1ccc(-c2ccc(C#N)cc2)cc1,refers to: compound,"human pregnant women, male fetuses, maternal serum","dose not given, paired maternal-cord samples, mean",,concentration,1.14 ng/mL
CCCCCCCCCCCCCCCC(=O)N[C@@H](CCC(=O)NCCCC[C@H](NC(=O)[C@H](C)NC(=O)[C@H](C)NC(=O)[C@H](CCC(N)=O)NC(=O)CNC(=O)[C@H](CCC(=O)O)NC(=O)[C@H](CC(C)C)NC(=O)[C@H](Cc1ccc(O)cc1)NC(=O)[C@H](CO)NC(=O)[C@H](CO)NC(=O)[C@@H](NC(=O)[C@H](CC(=O)O)NC(=O)[C@H](CO)NC(=O)[C@@H](NC(=O)[C@H](Cc1ccccc1)NC(=O)[C@@H](NC(=O)CNC(=O)[C@H](CCC(=O)O)NC(=O)[C@H](C)NC(=O)[C@@H](N)Cc1cnc[nH]1)[C@@H](C)O)[C@@H](C)O)C(C)C)C(=O)N[C@@H](CCC(=O)O)C(=O)N[C@@H](Cc1ccccc1)C(=O)N[C@H](C(=O)N[C@@H](C)C(=O)N[C@@H](Cc1c[nH]c2ccccc12)C(=O)N[C@@H](CC(C)C)C(=O)N[C@H](C(=O)N[C@@H](CCCNC(=N)N)C(=O)NCC(=O)N[C@@H](CCCNC(=N)N)C(=O)NCC(=O)O)C(C)C)[C@@H](C)CC)C(=O)O,HPLC-MS/MS,"Sprague-Dawley rat, plasma","subcutaneous, 0.06 mg/kg, day 1, before first injection",,baseline plasma concentration,0 ng/mL
CCNCCCn1c2c(c3cc(OC)c(OC)cc3c1=O)C(=O)c1cc3c(nc1-2)OCO3,,"male CD1 mouse, plasma","intravenous, 1 mg/kg",,Vss,17 L/kg
NC1(C(=O)N[C@@H](CCO)c2ccc(Cl)cc2)CCN(c2nc[nH]c3nccc2-3)CC1,,metastatic CRPC patients,"480 mg b.i.d., any grade, treatment-related, together with: enzalutamide 160 mg daily",,incidence of Leukopenia,20%
CC(C)/N=C(\N)c1ccc(NC(=O)c2ccc(C(=O)Nc3ccc(/C(N)=N/C(C)C)cc3)cc2)cc1,haemolysis,sheep erythrocytes,"1 h, pH 7.5",,HC50,> 128 µg/mL
CCCCCCOC(=O)NC(=N)c1ccc(NCc2nc3cc(C(=O)N(CCC(=O)OCC)c4ccccn4)ccc3n2C)cc1,,human,"oral, 75 mg, compound alone",,participants with TEAE rhinorrhoea,0%
O=C1Cc2cc(CCN3CCN(c4nsc5ccccc45)CC3)c(Cl)cc2N1,,"male Hartley guinea pig, anaesthetized","intravenous infusion, 0.1 mg/kg, 10 min infusion, post-infusion",,QTc interval,352 ± 0.7 ms
OC[C@H]1O[C@@H](c2ccc(F)c(Cc3cc4ccccc4s3)c2)[C@H](O)[C@@H](O)[C@@H]1O,,Japanese type 1 diabetes patients,"oral, 100 mg/day, day 12",,hypoglycaemia adverse events,1 % patients
O=C(CCCN1CCC(O)(c2ccc(Cl)cc2)CC1)c1ccc(F)cc1,,"male Hartley guinea pig, anaesthetized","intravenous, 1 mg/kg, baseline before infusion",,QTc interval,346 ± 0.5 ms
CCc1cc(C(=O)NC)c2nccc(N3CCc4c(cc(Cn5ccnc5)cc4-c4cn(C)nc4C(F)(F)F)C3=O)c2c1,refers to: TP,Sprague Dawley rat,"oral, 100 mg/kg once daily, 7 days",reference: vehicle,change in clinical chemistry or haematology parameter,-2.1%
FC(F)(F)c1ccc(CNc2ccc(Cc3c[nH]c4ncc(Cl)cc34)cn2)cn1,,patients with advanced solid tumours,"oral, 1000 mg/day, TGCT cohort, all grades",,dry mouth incidence,10%
CNC(=O)c1ccc(-c2cnc3ncc(Cc4ccc5ncccc5c4)n3n2)cc1F,,Japanese patients,"oral, 400 mg, grade 3/4",,Agitation dose reduction/interruption,0%
C[C@@H](Cn1ccc(-c2ccc(C#N)c(Cl)c2)n1)NC(=O)c1cc([C@@H](C)O)[nH]n1,,"healthy male human, plasma","intravenous infusion, 100 µg 14C-labelled, 15 min infusion, microtracer, geometric mean",,AUC(0-tlast),3370 h·pg eq/mL
Cn1cnc2c(F)c(Nc3ccc(Br)cc3Cl)c(C(=O)NOCCO)cc21,population PK model,"human, plasma","oral, nonlinear absorption model, fasted",,Vmax of absorption,310000 nmol/h
Cc1cnc(N2CC3(CCOCC3)C2)c(C(=O)Nc2ccc(C(=O)N3CCc4cc(C(=O)Nc5c(C)cccc5F)sc4-c4ccccc43)cc2)c1,,"human, nasal epithelial lining fluid","inhaled, 5 mg twice daily, 84 h",,concentration,6270 ng/mL
CCn1ncc2c1-c1cnc(N)c(c1)O[C@H](C)c1cc(F)ccc1-c1nn(C)nc1C2,,"female athymic nude mice, sample B PDX","oral, 1 mg/kg twice daily for 21 days, 12 h",,unbound plasma trough concentration,12 ± 2 nM
O=C1NCCc2nc(OCc3cccc(F)c3)ccc21,refers to: Convulsions,Sprague-Dawley rat male,"oral, 100 mg/kg, 4 h",direction not given,Irwin test score,0

# Some of these lines once more:
Compound,test,test system,conditions,how to read,quantity,value
C[C@@H](Oc1ccc(S(C)(=O)=O)cc1C(=O)N1C[C@@H]2C[C@]2(c2cc(C(F)(F)F)on2)C1)C(F)(F)F,,"young healthy humans, urine","oral, 75 mg once daily, 0 to 24 h, multiple dosing",,fraction excreted in urine at steady state,3.9%
Cc1ccc([C@@H]2O[C@H](CO)[C@@H](O)[C@H](O)[C@H]2O)cc1Cc1ccc(-c2ccc(F)cc2)s1,,Japanese type 2 diabetes patients,"100 mg, day 17, 24 h urine collection",reference: baseline,urinary magnesium excretion change,26.6 mg
CC(C)/N=C(\N)c1ccc(NC(=O)c2ccc(C(=O)Nc3ccc(/C(N)=N/C(C)C)cc3)cc2)cc1,haemolysis,sheep erythrocytes,"1 h, pH 7.5",,HC50,> 128 µg/mL
CNC(=O)c1ccc(-c2cnc3ncc(Cc4ccc5ncccc5c4)n3n2)cc1F,,Japanese patients,"oral, 400 mg, grade 3/4",,Agitation dose reduction/interruption,0%
Cn1ncc(C(=O)O)c1S(=O)(=O)NC1CCOc2ccccc21 (stereo not drawn),"colloidal aggregate formation, dynamic light scattering",50 mM potassium phosphate buffer,"200 µM, pH 7.0, 1% DMSO",higher = more aggregation,DLS scattered light intensity,561000 counts/s
